{"sequences": {"note": "Chains of the proteins cited; added tags and fusions are not shown.", "UniProt P9WPP7, whole entry": "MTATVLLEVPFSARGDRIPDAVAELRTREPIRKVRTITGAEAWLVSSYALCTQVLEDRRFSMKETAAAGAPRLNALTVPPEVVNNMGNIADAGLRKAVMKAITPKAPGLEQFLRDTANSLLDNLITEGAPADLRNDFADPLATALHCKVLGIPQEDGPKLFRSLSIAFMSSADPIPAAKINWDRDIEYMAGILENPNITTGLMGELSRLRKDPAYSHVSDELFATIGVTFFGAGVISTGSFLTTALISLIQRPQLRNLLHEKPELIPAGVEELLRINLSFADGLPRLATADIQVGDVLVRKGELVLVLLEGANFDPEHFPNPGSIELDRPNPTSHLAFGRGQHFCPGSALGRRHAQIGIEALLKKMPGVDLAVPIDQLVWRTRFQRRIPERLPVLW"}, "data": "Results pooled from the literature", "cyp121": "Mycocyclosin synthase (cyp121, Mycobacterium tuberculosis, UniProt P9WPP7)", "note": "Numbers after ± are the reported error."}
{"SMILES": "Cc1ccc(S(=O)(=O)Nc2cccc(C(=O)NC3CCN(c4ncnc5[nH]cnc45)CC3)c2)cc1Cl", "tested on": "A549-ACE2", "conditions": "200 µM", "measurement": "viability", "value": "60.9%"}
{"SMILES": "NC[C@@H](NC[C@@H]1CCCN1C[C@@H](CO)NC[C@@H](NCCc1ccc(-c2ccccc2)cc1)c1ccccc1)c1ccccc1", "tested on": "Klebsiella pneumoniae", "assay": "bacterial growth", "conditions": "16 µM, fold shift of IC90, together with: amikacin", "measurement": "potentiation of amikacin", "value": "1 fold"}
{"SMILES": "NC1=NC2(CCCCC2)N(c2ccc(OCc3cn(CCCCOc4ccc5ccc(=O)oc5c4)nn3)cc2)C(N)=N1", "tested on": "Mycobacterium bovis BCG", "test system": "resistant, thyA S125P", "measurement": "MIC50", "value": "3.2 µM"}
{"SMILES": "CO[C@H]1[C@H](O[C@H]([C@H]2O[C@@H](n3ccc(=O)[nH]c3=O)[C@H](O)[C@@H]2O)[C@H](NCCCNC(=O)[C@@H](NC(=O)[C@@H](NC(=O)N[C@H](C(=O)O)C(C)C)[C@@H]2CCNC(=N)N2)[C@@H](OC(=O)CCCCCCCCCCCCNC(=N)N)C(C)C)C(N)=O)O[C@H](CN)[C@H]1O", "tested on": "Enterococcus faecium", "assay": "alamar blue", "test system": "NR-32065", "measurement": "MIC90", "value": "15 ± 0.235 µg/mL"}
{"SMILES": "N#Cc1ccc2cc3c(=O)[nH]c(=O)nc-3n(-c3cccc(-c4nnn[nH]4)c3)c2c1", "tested on": "CCRF-CEM", "assay": "cell growth, ATPlite", "conditions": "72 h", "measurement": "GI50", "value": "24.3 µM"}
{"SMILES": "CC(C)C[C@@H]1NC(=O)[C@H](CCC(=O)O)NC(=O)[C@@H]2CSSC[C@@H]3NC(=O)[C@H](C)NC(=O)[C@@H]4CCCN4C(=O)[C@H](CC(N)=O)NC(=O)[C@H](CSSC[C@H](NC(=O)[C@H](Cc4ccc(O)cc4)NC(=O)[C@H](CC(N)=O)NC(=O)[C@H](CO)NC(=O)[C@H](CO)NC(=O)CN4CCN(CC(=O)O)CCN(CC(=O)O)CCN(CC(=O)O)CC4)C(=O)N2)NC(=O)[C@H](CSSC[C@@H](C(=O)N[C@@H](Cc2ccccc2)C(=O)O)NC(=O)CNC(=O)[C@H]([C@@H](C)O)NC3=O)NC1=O [copper-64 labelled]", "tested on": "T84", "conditions": "1 h loading, pH 5.5, 37 °C", "measurement": "64Cu efflux", "value": "no effect"}
{"SMILES": "CC(CCN[C@H](CN[C@H](CO)CN1CCC[C@H]1CN[C@H](CN)c1ccccc1)c1ccccc1)c1ccccc1 (stereo partly drawn)", "tested on": "Klebsiella pneumoniae", "assay": "bacterial growth", "conditions": "8 µM, fold shift of IC90, together with: amikacin", "measurement": "potentiation of amikacin", "value": "1 fold"}
{"SMILES": "CC(C)C(C(=O)N(Cc1ccc(C2CCCCC2)cc1)c1ccc(C(=O)O)cc1)N(C)S(=O)(=O)c1c(F)c(F)c(F)c(F)c1F (stereo not drawn)", "tested on": "cancer-associated fibroblasts", "assay": "gene expression, refers to: survivin", "conditions": "concentration not given", "measurement": "inhibition", "value": "> 60%"}
{"SMILES": "C[C@H](CS)C(=O)N[C@@H](Cc1c[nH]c2ccccc12)C(=O)O", "tested on": "Klebsiella pneumoniae", "test system": "VIM-1 producing", "conditions": "25 µM, together with: meropenem", "measurement": "MIC of meropenem", "value": "16 µg/mL"}
{"SMILES": "Nc1ccc2ccc(CCNCCCc3cccc(F)c3)cc2n1", "tested on": "Bacillus subtilis NOS bi-domain", "assay": "enzyme activity, inhibitor", "measurement": "Ki", "value": "0.269 µM"}
{"SMILES": "CCCN(CCN1CCN(c2nccc3ccccc23)CC1)[C@H]1CCc2nc(N)sc2C1", "tested on": "dopamine D3 receptor, mouse", "assay": "agonist", "test system": "D2 receptor knockout mouse, nucleus accumbens membranes", "how to read": "reference: basal", "measurement": "Emax", "value": "11.5 ± 2.8%"}
{"SMILES": "Cc1c(C(=O)NN2CCCCC2)nn(-c2ccc(Cl)cc2Cl)c1-c1ccc(CCCCCBr)cc1", "test system": "mice, food-deprived", "conditions": "i.p., 30 mg/kg, 1 h intake, dosed 60 min before", "how to read": "reference: vehicle, higher = less food", "measurement": "food intake decrease", "value": "39%"}
{"SMILES": "CC1CCCCCCCCCCCCC(=O)C1 (stereo not drawn)", "tested on": "Manis javanica OBP3 Y117F", "conditions": "concentration not given", "how to read": "reference: wild type", "measurement": "binding affinity", "value": "decreased"}
{"SMILES": "C=CC(=O)Nc1cc(-n2c(=O)ccc3cnc4ccc(-c5cn[nH]c5)cc4c32)ccc1C", "tested on": "Ramos", "assay": "western blot, refers to: eIF4E Ser209 phosphorylation", "conditions": "1 µM", "measurement": "eIF4E phosphorylation", "value": "decreased"}
{"SMILES": "NCc1ccc(-c2ncc(OCC3CCNCC3)nc2-c2ccc(-c3ccoc3)cc2)cc1", "tested on": "Zika virus", "test system": "U87, FLR", "conditions": "5 µM, 48 h", "measurement": "infectious virus reduction", "value": "99.7%"}
{"SMILES": "NC[C@@H](NC[C@@H]1CCCN1C[C@@H](CO)NC[C@@H](NCCc1ccc(Cl)c(Cl)c1)c1ccccc1)c1ccccc1", "tested on": "Klebsiella pneumoniae", "assay": "bacterial growth", "conditions": "8 µM, fold shift of IC90, together with: amikacin", "measurement": "potentiation of amikacin", "value": "1 fold"}
{"SMILES": "CC(C)C(c1ccc(-c2ccccc2)cc1)n1ccnc1 (stereo not drawn)", "tested on": "cyp121", "assay": "binding", "measurement": "Kd", "value": "2.9 ± 0.59 µM"}
{"SMILES": "Nc1cc(S(=O)(=O)O)cc2cc(S(=O)(=O)O)cc(O)c12", "tested on": "Escherichia coli", "assay": "bacterial growth, broth microdilution", "test system": "expressing OXA-48", "conditions": "128 µg/mL, together with: ampicillin", "how to read": "MIC of ampicillin", "measurement": "MIC of ampicillin", "value": "256 µg/mL"}
{"SMILES": "CO[C@H]1[C@H](O[C@H]([C@H]2O[C@@H](n3ccc(=O)[nH]c3=O)[C@H](O)[C@@H]2O)[C@H](NCCCNC(=O)[C@@H](NC(=O)[C@@H](NC(=O)N[C@H](C(=O)O)C(C)C)[C@@H]2CCNC(=N)N2)[C@@H](OC(=O)CCCCCCCCCCCCN(O)C(=N)N)C(C)C)C(N)=O)O[C@H](CN)[C@H]1O", "tested on": "Candida albicans", "assay": "alamar blue", "test system": "18 M", "measurement": "MIC50", "value": "> 35 µg/mL"}
{"SMILES": "Cc1ccc(-c2csc(NP(=O)(O)OCC3OC(n4c[n+](Cc5ccccc5)c5c(=O)[nH]c(NC(=O)c6ccccc6)nc54)C4OC(C)(C)OC34)n2)cc1 (stereo not drawn)", "tested on": "Caco-2", "assay": "cell growth, SRB", "measurement": "IC50", "value": "46 ± 1.96 µM"}
{"SMILES": "CCC(c1ccc(-c2ccc(F)c(F)c2)cc1)n1ccnc1 (stereo not drawn)", "tested on": "cyp121", "conditions": "racemate", "measurement": "Kd", "value": "≤ 6 µM"}
{"SMILES": "NC[C@@H](NC[C@@H]1CCCN1C[C@@H](CO)NC[C@@H](NCCC12CC3CC(CC(C3)C1)C2)c1ccccc1)c1ccccc1", "tested on": "Klebsiella pneumoniae", "assay": "bacterial growth", "conditions": "24 µM, fold shift of IC90, together with: amikacin", "measurement": "potentiation of amikacin", "value": "3.2 fold"}
{"SMILES": "CCc1nc(N)nc(N)c1C#CC(C)c1cc2c(c(-c3ccc(C(=O)O)cc3)c1)OCO2 (stereo not drawn)", "tested on": "HepG2", "assay": "cytotoxicity, Alamar Blue", "conditions": "four hours", "measurement": "IC50", "value": "> 200 µg/mL"}
{"SMILES": "CC1(C)OC2C(COP(=O)(O)Nc3nccs3)OC(n3cnc4c(=O)[nH]c(NC(=O)c5ccccc5)nc43)C2O1 (stereo not drawn)", "tested on": "MCF7", "assay": "cell growth, SRB", "measurement": "IC50", "value": "> 100 µM"}
{"SMILES": "Cc1cc(=O)oc2cc(OCCCCn3cc(COc4ccc(N5C(N)=NC(N)=NC56CCCCC6)cc4)nn3)ccc12", "tested on": "Mycobacterium bovis", "test system": "BCG Tac^r7.2, thyA W133S missense", "conditions": "TA-C-resistant thyA mutant", "measurement": "MIC50", "value": "3.2 µM"}
{"SMILES": "COc1ccc(S(=O)(=O)Nc2cccc(C(=O)NC3CCN(c4ncnc5[nH]cnc45)CC3)c2)cc1", "tested on": "A549-ACE2", "conditions": "22.22 µM", "measurement": "viability", "value": "98.8%"}
{"SMILES": "NC[C@@H](NC[C@@H]1CCCN1C[C@@H](CO)NC[C@@H](NCCC1CC2CCC1C2)c1ccccc1)c1ccccc1 (stereo partly drawn)", "tested on": "Escherichia coli", "assay": "bacterial growth", "conditions": "8 µM, fold shift of IC50, together with: amikacin", "measurement": "potentiation of amikacin", "value": "1.6 fold"}
{"SMILES": "CCN(CC)C(=O)Oc1ccc(C(=O)Nc2cccc3cc[nH]c23)cc1", "assay": "whole-cell patch clamp", "test system": "CA1 interneurons s.r./s.l.m., mouse P21-28, acute hippocampal slices", "conditions": "10 µM, holding +40 mV", "how to read": "reference: baseline", "measurement": "NMDAR-EPSC amplitude", "value": "57 ± 3%"}
{"SMILES": "CN1CC[C@]23c4c5ccc(O)c4O[C@H]2c2ncc(-c4ccc(Cl)cc4)cc2C[C@@]3(OCCCc2ccccc2)[C@H]1C5", "test system": "CD-1 mouse, chemotherapy-induced neuropathy", "conditions": "sc, 3.2 mg/kg, together with: vehicle ip, 5 min prior", "measurement": "time to zero efficacy", "value": "3 days"}
{"SMILES": "CCCCCCCCCCCCNC(=O)N[C@H](C(=O)N[C@H]1/C=C/CCNC(=O)/C=C/[C@H](C)NC1=O)C(C)C", "tested on": "Mino bortezomib-resistant", "assay": "cell viability, CellTiter-Glo", "conditions": "24 h", "measurement": "EC50", "value": "0.129 ± 0.002 µM"}
{"SMILES": "Cc1ccc(-c2csc(NP(=O)(O)OCC3OC(n4cnc5c(=O)[nH]c(NC(=O)c6ccccc6)nc54)C4OC(C)(C)OC34)n2)cc1 (stereo not drawn)", "tested on": "Caco-2", "assay": "cell growth, SRB", "measurement": "IC50", "value": "> 100 µM"}
{"SMILES": "C[C@@H](O)[C@@H]1NC(=O)[C@@H]2CSCSC[C@@H](C(=O)N[C@H](CC(=O)N[C@@H](CCCNC(=N)N)C(=O)O)Cc3ccc(O)cc3)NC(=O)[C@H](CCC(N)=O)NC(=O)[C@H](Cc3ccc(O)c(I)c3)NC(=O)[C@H](CCCNC(=N)N)NC(=O)[C@H](CSSC[C@H](NC(=O)CN)C(=O)N2)NC(=O)[C@H](CCCNC(=N)N)NC(=O)[C@@H]2CCCN2C(=O)[C@H](CC(=O)O)NC1=O", "tested on": "N-type calcium channel", "assay": "radioligand binding", "conditions": "10 µM", "measurement": "inhibition", "value": "58.4%"}
{"SMILES": "O=S(=O)(O)c1ccc(-c2ccc(S(=O)(=O)O)cc2)cc1", "tested on": "Escherichia coli", "assay": "bacterial growth, broth microdilution", "test system": "expressing OXA-48", "conditions": "256 µg/mL, together with: ampicillin", "how to read": "MIC of ampicillin", "measurement": "MIC of ampicillin", "value": "32 µg/mL"}
{"note": "For quick reference, copied from above:"}
{"SMILES": "CC(C)C(C(=O)N(Cc1ccc(C2CCCCC2)cc1)c1ccc(C(=O)O)cc1)N(C)S(=O)(=O)c1c(F)c(F)c(F)c(F)c1F (stereo not drawn)", "tested on": "cancer-associated fibroblasts", "assay": "gene expression, refers to: survivin", "conditions": "concentration not given", "measurement": "inhibition", "value": "> 60%"}
{"SMILES": "Nc1ccc2ccc(CCNCCCc3cccc(F)c3)cc2n1", "tested on": "Bacillus subtilis NOS bi-domain", "assay": "enzyme activity, inhibitor", "measurement": "Ki", "value": "0.269 µM"}
{"SMILES": "CCc1nc(N)nc(N)c1C#CC(C)c1cc2c(c(-c3ccc(C(=O)O)cc3)c1)OCO2 (stereo not drawn)", "tested on": "HepG2", "assay": "cytotoxicity, Alamar Blue", "conditions": "four hours", "measurement": "IC50", "value": "> 200 µg/mL"}
{"SMILES": "NC[C@@H](NC[C@@H]1CCCN1C[C@@H](CO)NC[C@@H](NCCc1ccc(-c2ccccc2)cc1)c1ccccc1)c1ccccc1", "tested on": "Klebsiella pneumoniae", "assay": "bacterial growth", "conditions": "16 µM, fold shift of IC90, together with: amikacin", "measurement": "potentiation of amikacin", "value": "1 fold"}
